# Measured values of several laboratories.
# Every numbered part comes from another study and shows a few of its results, in no order.

# Study 1
# Target: Interferon regulatory factor 7, full length, phosphomimetic (IRF7, Homo sapiens, UniProt Q92985, residues 1-503, S101K/S471D/S472D/S475D/S476D/S477D/S483D/S484D/S487D)
# Method: protein-binding microarray
# Form: double-stranded DNA, one strand shown
# Matrix: in vitro
# Concentration: 250 nM
# Notes: 60-bp whole probe
# Added: salmon DNA 0.4 mg/ml
# Relative to: random background probes
# Reading: higher = stronger binding
# Shared flanks, not repeated: GCCTAGCAC … GTCTTGATTCGCTTGACGCTGCTG
# Construct (chain): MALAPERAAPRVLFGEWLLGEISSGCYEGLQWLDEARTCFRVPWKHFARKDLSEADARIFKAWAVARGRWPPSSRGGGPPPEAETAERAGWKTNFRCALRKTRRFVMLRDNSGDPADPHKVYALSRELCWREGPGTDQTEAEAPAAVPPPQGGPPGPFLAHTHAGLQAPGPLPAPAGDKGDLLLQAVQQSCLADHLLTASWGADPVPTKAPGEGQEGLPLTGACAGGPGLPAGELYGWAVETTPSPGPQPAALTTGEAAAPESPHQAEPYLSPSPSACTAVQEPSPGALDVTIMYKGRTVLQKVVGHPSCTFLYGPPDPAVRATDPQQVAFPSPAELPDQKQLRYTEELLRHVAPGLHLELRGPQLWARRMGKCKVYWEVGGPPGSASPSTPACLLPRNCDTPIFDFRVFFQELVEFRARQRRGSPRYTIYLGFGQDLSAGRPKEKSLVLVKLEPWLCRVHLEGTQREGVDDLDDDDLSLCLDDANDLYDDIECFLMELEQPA
Sequence,log fluorescence
GACGGTCTCCTACGGCTGACGTGCTAG,-0.534 z-score
TTAGGTCTCGGTCTCGATTAGTGCTAG,2.36 z-score
TTAGGACTGCTTATCCTTTCGTGCTAG,-0.0209 z-score
TCAGATTTCAGTCTCGATTAGTGCTAG,2.12 z-score
GACGGACTCGGACTGGGGACGTGCTAG,0.237 z-score
TTAGGACTGGGATTTCGGTTAGTGCTA,0.136 z-score

# Study 2
# Target: RNA binding protein fox-1 homolog 2, RRM domain, GST-SBP tag (RBFOX2, Homo sapiens, UniProt O43251-10, residues 100-194)
# Method: RNA Bind-n-Seq
# Form: RNA
# Matrix: in vitro
# Concentration: 365 nM
# Notes: natural RNA segment, single round, ends assumed
# Relative to: no-protein control
# Reading: higher = stronger binding
# Shared flanks, not repeated: GGGAGUUCUACAGUCCGACGAUC … UGGAAUUCUCGGGUGCCAA
# Target sequence (chain): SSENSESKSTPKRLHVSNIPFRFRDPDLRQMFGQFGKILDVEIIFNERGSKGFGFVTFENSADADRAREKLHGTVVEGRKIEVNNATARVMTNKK
Sequence,RBNS enrichment (R)
UCUCCAUUUCUCUGCCAAGCCCAUUUACCCCCACCUCAUGCAUCCCAAGGCUCUACUGGGUCCCUGGACCUAACCCUGCUUUCAUCCUGGUGGCCUUAACUACAGUGGAG,1.66
CCCAGUAUAGACUGAGUGUCCACUUCAGCAAAGGUGUUUUCAUCCCAGCCUUGGUUUGGAGCUUGCAGACGUAACUGAAUAUAAUUUCCUCCAUUUGCAGCAUGGUUCCC,0.756
AACUCUCAUGUAGGAUUUUUAAAGGACCGGUAAAGAAUGGUGUUUGAGAAAUGGUGUAUGAUGCCUGGUGGUGGUAGGGGUGCGUAUUGAAACCCAGCGCGCAGUUCUCU,1.27
CUGGUUAGGAAUCACAGCUGUAAAAUUGAUUUCAGUUCAUCACACUUCUUCAUGAUGUUGCCCCUAAAUUUUGCACACUAUAUUCUUGUAUAUUAUUUCAAAUAAAUGGA,0.51
CCUGCUGGGGCUCCUUCCUGGCACUGAGGAGGGGCGCUCCCAAUGCUGUGAGGCAGCGGGGAGGGACCGUGCACCCGUGGCUAUCAGAGCCCCUCCGCUGUCCCACCCUG,0.316
UUUUUUAAAAAAAAAAAGAAGAAAAAAGAGACAGAGAAAAUUGGUAUUUAUUUUUCUAUUAUAGCCAUAUUUAUAUAUUUAUGCACUUGUAAAUAAAUGUAUAUGUUUUA,2.03
AGAGUCAAUCAAAUCCUUGUGAUGUUUUGUAUGGACUUUGACAAUAUGUAAAUAAUGUGUAAAGCCAGUUUUUAUGAUUAAGGAAUCAAAUUUAUUGAAUUUUAUUAUUG,0.427

# Study 3
# Target: Sal-like protein 4, full length isoform B (SALL4, Homo sapiens, UniProt Q9UJQ4-2, residues 1-616)
# Method: universal PBM
# Form: double-stranded DNA, one strand shown
# Matrix: in vitro
# Concentration: not given
# Notes: 8-mer, flanks averaged, mean of replicates
# Reading: higher = stronger binding
Sequence,E-score
GGAGTTAA,0.00983
ACCATACA,0.028
GCCATACC,-0.117
CGGCACCC,-0.209
TATTGCAA,0.214
CTCTATCC,-0.109

# Mixed results
Molecule,target,test,test system,conditions,how to read,endpoint,value
"PhoQ, residues 284 288 289 292 302 303 ASSHFY","PhoP, residues 12 14 15 18 19 NMSSL (Escherichia coli, UniProt P23836)","Sort-seq, refers to: YFP reporter",E. coli,"PhoQ-PhoP variant library, added: 10 µM Mg2+","relative to: high Mg2+ state, higher = stronger signaling",fold induction,2.34

# Some of these lines once more (study 2):
Sequence,RBNS enrichment (R)
CCCAGUAUAGACUGAGUGUCCACUUCAGCAAAGGUGUUUUCAUCCCAGCCUUGGUUUGGAGCUUGCAGACGUAACUGAAUAUAAUUUCCUCCAUUUGCAGCAUGGUUCCC,0.756
AGAGUCAAUCAAAUCCUUGUGAUGUUUUGUAUGGACUUUGACAAUAUGUAAAUAAUGUGUAAAGCCAGUUUUUAUGAUUAAGGAAUCAAAUUUAUUGAAUUUUAUUAUUG,0.427
AACUCUCAUGUAGGAUUUUUAAAGGACCGGUAAAGAAUGGUGUUUGAGAAAUGGUGUAUGAUGCCUGGUGGUGGUAGGGGUGCGUAUUGAAACCCAGCGCGCAGUUCUCU,1.27
